Experimental data gathered from unrelated publications.
A part holds a random share of what one study measured.

Series 1
Target: RNA binding protein fox-1 homolog 2, RRM domain, GST-SBP tag (RBFOX2, Homo sapiens, UniProt O43251-10, residues 100-194)
Technique: RNA Bind-n-Seq
Molecule type: RNA
Matrix: in vitro
Concentration: 365 nM
Notes: natural RNA segment, single round, ends assumed
Reference: no-protein control
Direction: higher = stronger binding
Endpoint: RBNS enrichment (R)
Target sequence (chain): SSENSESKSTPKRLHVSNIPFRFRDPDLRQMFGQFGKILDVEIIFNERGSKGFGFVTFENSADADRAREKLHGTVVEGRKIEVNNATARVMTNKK
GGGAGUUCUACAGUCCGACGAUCGGAGGUUGGCUGCCCUGAGGAAUUAGCACGUCCGUGGCAGCUGCUGCCUCCCUUGUCCUGUGAUUGUUCUGGAGGCUUCUGCCCAACUGCUUCACUUUCUCCAACCCUUCUGGAAUUCUCGGGUGCCAA: 1.18
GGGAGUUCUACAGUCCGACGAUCACUGAGUCAGGUUUAGGAAGCAAGUUUGGUUGCAUCAAUUAAGCAGGCUCUUUUCAAUUGACUGAUGCUGGGGCCUUCAGUUUUAUUCUCAGUAUAGAUUGCCAGUAUUGUGGAAUUCUCGGGUGCCAA: 0.977
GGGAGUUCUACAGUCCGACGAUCAUCCGAGCUGGACUCCUCCUGUAGGGUGGACAGACUGUAUAUUGAUAAUUCCUUCUAUGCGCAGUUUAGACAUCUCUGUUGGGCUUUUUUUUUAAAUUUUUAUUUUAAAAUGGAAUUCUCGGGUGCCAA: 0.512
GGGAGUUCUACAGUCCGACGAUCUUUUAAAUUUAUGAUCCAUUUUGUAUGGUCUCAAGUUGGAUGACCUCAUUACUAAUAUUUGUUGUAAAAGUGAAACUUGUUUGCCGACCAAUAAACAACUGAUUGAGAUUUGGAAUUCUCGGGUGCCAA: 0.38
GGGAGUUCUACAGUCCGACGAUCAAAUAUCAGGGAUUUUUGUUGAAUAUUUCAAAUUCAGCUUUAAGUGUAAGACUCAGCAGUGUUCAUGGUUAAGGUAAGGAACAUGCCUUUUCCAGAGCUGCUGCAAGAGGUGGAAUUCUCGGGUGCCAA: 0.392
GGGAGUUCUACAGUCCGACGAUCGAAAUCCUCAGCCUGGAAACUGGGCCAGAUUGUUCCUUGCUUCAAAUAUCUUUUCCUAAAGAAGAUAAACCUAAGACUCAUUCCAGGUAGCUCAGUGCCAACUAAAACAAUGGAAUUCUCGGGUGCCAA: 0.299
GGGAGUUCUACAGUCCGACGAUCACUUUGUAAUGCUCUUUUGUAACUAUCGACAAAGGUGUGGGGAAGCUGAGGUCUAGGUCUUCUUAAAGGUCAAGUCUGCUCUCCCUCGCCUAAAGUGCAGCAGCAGCUCCUGGAAUUCUCGGGUGCCAA: 0.305
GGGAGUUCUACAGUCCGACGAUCACUGAGGAUUCGCUUGGGAACGGGCAGGUGGUAGUAGGGGCGCCAGCUUGGGCUCUCCUGGCGCCCCGUAGCAUCGAGUGUCUUCUUUGUCUUCUUUCUCUCCUCACCCAUGGAAUUCUCGGGUGCCAA: 0.77
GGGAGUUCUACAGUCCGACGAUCUUGAGACAUUCAUUGUUGCUUGACUGACAUUUUGGUCUGGGUUUUCUUUUAAUAUUUUAUUUUAAUUAAAAUUAGGAAAAAAUGUGUUCAACAAUUUUUUUUUUGUCCCAUGGAAUUCUCGGGUGCCAA: 0.643
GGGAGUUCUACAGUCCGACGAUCCCUGCGGCCGGGCUGCCCUUCGCUGCCAGGACACCUGCCCCAGCGCGGCUUGGCCGCCAUCCGGGACGCUUCCAGACCACCUGCCAGCCAUCACAAGGGGAACGCAGAGGUGGAAUUCUCGGGUGCCAA: 0.216
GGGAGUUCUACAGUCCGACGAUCCAUUUAUGUCGUGUGUGAGUGAGUGAUACGCAGAGUUCUUUACUGCUGUCUGUGGUGUGUGUGCCUUGUCUAGACAUGUGGCUUCCUCUGCUGUUGACCAGGUAGGCGCAUGGAAUUCUCGGGUGCCAA: 1.4
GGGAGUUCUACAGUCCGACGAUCACACUCAGGCUAAGAAGGAGCGGGUCACCACAGACAAGAGUGGGGCCAUAUGUAGCACAGCAAUAUUCCAGAUGCUGGUGGGUAUUGCUGCUGCCCUAGAGCAAUGGCUUUGGAAUUCUCGGGUGCCAA: 1.17

Series 2
Target: Histone acetyltransferase KAT6A, winged helix 1, GST fusion (KAT6A, Homo sapiens, UniProt Q92794, residues 1-85)
Technique: protein binding microarray
Molecule type: double-stranded DNA, one strand shown
Matrix: in vitro
Concentration: not given
Notes: 8-mer, flanks averaged, mean of 2 arrays, mostly near background
Reference: not given
Direction: higher = stronger binding
Endpoint: E-score
Residues (chain): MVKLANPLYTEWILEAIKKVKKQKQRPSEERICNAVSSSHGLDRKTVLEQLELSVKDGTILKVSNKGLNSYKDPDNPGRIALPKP
AGGGCCTC: -0.132
CATAGACA: -0.107
GTATACAC: 0.145
CTCCGCTC: 0.0712
CCGAAGAC: -0.107
GCGGTTCC: 0.251
ATCATGCA: -0.0949
CGAAGGCA: -0.187
CTAGACGC: 0.0607
GGACTCAC: 0.0316
GGGGCGAA: 0.0506
ACACTCCA: -0.104
CCCCCGGA: 0.048
AAATACAA: -0.182
AGTGAGGG: -0.0736
ACTAAAGG: -0.204
ATCACCCC: -0.0964
AGGTTAGA: -0.0692
GAAACCTC: -0.122
TATATTGA: -0.0492

Series 3
Target: PABPC1L2, full length, GST fusion (mouse, UniProt A0ABA7IW68)
Technique: RNAcompete
Molecule type: RNA
Matrix: in vitro
Concentration: 20 nM
Notes: 7-mer, probes averaged, single round
Reference: mean of 7-mers
Direction: higher = stronger binding
Endpoint: 7-mer Z-score
Construct (chain): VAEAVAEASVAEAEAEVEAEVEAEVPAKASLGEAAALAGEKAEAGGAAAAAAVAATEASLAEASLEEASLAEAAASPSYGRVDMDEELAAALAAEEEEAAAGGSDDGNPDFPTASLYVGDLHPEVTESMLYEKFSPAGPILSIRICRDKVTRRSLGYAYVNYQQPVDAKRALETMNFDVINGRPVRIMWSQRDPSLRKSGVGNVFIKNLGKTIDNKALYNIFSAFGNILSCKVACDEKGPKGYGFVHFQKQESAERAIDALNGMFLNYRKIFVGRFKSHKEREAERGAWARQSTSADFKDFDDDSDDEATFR
CAAAUAG: 0.327
GGUGAUU: 0.0424
CAAAUUU: 0.356
CAAGGUU: -0.215
UGCUCAG: -0.186
AUGCGUA: -0.0844
GCGGCAC: 0.0696
GUAUGGA: 0.0352
AAUGGCG: 0.169
CAAGACG: -0.00652
AUUCAUC: -0.393
ACUUGCU: -0.306
GGAUGAG: 0.0297
UACGUCC: -0.344
GGGCUUA: 0.00254
AAGGUGG: 0.358
CCGGAAA: 0.711

Series 4
Target: Interferon regulatory factor 5, full length, phosphomimetic (IRF5, Homo sapiens, UniProt Q13568-2, residues 1-514, K96S/S451D/S453D/S456D/S462D)
Technique: protein-binding microarray
Molecule type: double-stranded DNA, one strand shown
Matrix: in vitro
Concentration: 250 nM
Notes: 60-bp whole probe
Together with: salmon DNA 0.4 mg/ml
Reference: random background probes
Direction: higher = stronger binding
Endpoint: log fluorescence
Constant ends, left off below: GCCTAGCAC … GTCTTGATTCGCTTGACGCTGCTG
TCACTTTTCGCTTTCTTACTGTGCTAG: 3.55 z-score
TCAATTTCCATTATTGCACTGTGCTAG: 1.46 z-score
TTAGATTTCAGACTTGATTAGTGCTAG: 0.486 z-score
TTAGGTTTCGGGACTCGGTTAGTGCTA: 5.84 z-score
TTAGGTATCGGGATCGGTTAGTGCTAG: 2.73 z-score
TTAGGTTTCGGGACCGGGTTAGTGCTA: 6.33 z-score
GACGGTATCGGGATTCGGGACGTGCTA: 1.49 z-score
GACGATTCCAGTTTCGAGAGGTGCTAG: 5.49 z-score
TCACCTTAGGTTTTCTGACTGTGCTAG: 0.25 z-score
GACGAACTGGGGTTTCGAAACGTGCTA: 2.09 z-score
TTAGGTTTCGGGTATCGATTAGTGCTA: 9.77 z-score
TCACTTATGATATATATAACTGTGCTA: 1.04 z-score
GACGGACTGGGGATTCGGGACGTGCTA: -0.641 z-score
TTAGGTATCTGGACTGGGTTAGTGCTA: -0.0581 z-score
TCAGAAATCGGTGATCAGACTGTGCTA: 0.391 z-score
GACGAACTGAGTATTGAGACGTGCTAG: -0.0894 z-score

Series 5
Target: RING finger protein unkempt homolog, zinc fingers 1-6, SBP tag (UNK, Homo sapiens, UniProt Q9C0B0, residues 30-357)
UniProt Q9C0B0, sequence (30-357, looked up): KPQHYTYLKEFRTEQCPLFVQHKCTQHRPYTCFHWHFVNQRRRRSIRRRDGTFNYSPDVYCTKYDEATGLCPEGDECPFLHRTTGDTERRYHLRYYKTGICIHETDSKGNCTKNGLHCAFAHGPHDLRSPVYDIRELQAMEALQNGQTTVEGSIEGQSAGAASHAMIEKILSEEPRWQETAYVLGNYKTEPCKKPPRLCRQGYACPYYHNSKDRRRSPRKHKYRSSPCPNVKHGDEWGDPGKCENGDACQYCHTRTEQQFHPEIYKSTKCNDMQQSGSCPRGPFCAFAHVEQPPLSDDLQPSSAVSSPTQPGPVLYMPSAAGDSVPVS
Technique: RNA Bind-n-Seq
Molecule type: RNA
Matrix: in vitro
Concentration: 100 nM
Notes: RNA with constant flanks, vertebrate orthologous sites, ends assumed
Reference: input RNA pool
Direction: higher = stronger binding
Endpoint: bound/input enrichment
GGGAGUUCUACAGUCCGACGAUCGAGCGCUGCUGUGCAGAUUGACCACACUGAAUGCAGAGUAGUAAUUUUCAUAGUCACAGUAAGGUAGCUUUAGGGCAGUAUCACCAUGUUCUCUCGUGUGCAGUUUUUGAAAAUGUACAACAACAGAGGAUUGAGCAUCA: 0.454 ratio
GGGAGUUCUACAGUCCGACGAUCUUACAGUCAUUGAUGGACUCUAUUUUUUUAUUAUUACUUGGACCUUGGUCGUUUUUAUACUAGCAAAAUGUCUUGUUUUAAUUUGUGUUUUUUUGGGGGGGUGGGAGUGAACUUGCUGAUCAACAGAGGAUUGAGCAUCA: 1.51 ratio
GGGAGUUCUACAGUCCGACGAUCGAGCUCAGCACAUAACAACUGACACCCCCAAAAGGCGUAGAAAAGGUUUACAAAAUAAUCUAGUUUUACGAAGAAAUCUUGUGCUAGAAUACUUUUUAAAGUAUUUUUGAAUACCAUUAACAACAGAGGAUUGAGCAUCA: 0.263 ratio
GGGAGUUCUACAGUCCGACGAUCGUCCCUCAGUGACAGUAUGCCGUCUGUAGCCGAUUCCCACUCCAGUCACUUUUCUGAGUUUAGCUGCUCGGACUUAGAGAGCAUGAGAACGUCGUGUAUUCAUGGCUCCAGUGAUUGUCACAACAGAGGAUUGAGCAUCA: 0.34 ratio
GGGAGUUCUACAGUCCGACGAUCAAAUUUACUUCAUGCCCUGGACUCCUUAUCGUACAGACACGUUAAUAGAGUACUCUUCACUGGAUGACUUCCAGAAUGGGCGUCAAACCACCACAUACAAGCUCCCCCACCGAGUGGACGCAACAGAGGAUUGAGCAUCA: 0.632 ratio
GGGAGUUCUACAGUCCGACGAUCCAGCUGAUUCUCUCAUUGGGAGAGCCGCACACAUAGCUGUUCUUGACUCGGAAAUAUUUUUAGAGAAAUUCUUUCUGGUUGCUGCCCUCAAAUAUUUCCAAUAGGAUAAAAACAUUGUUACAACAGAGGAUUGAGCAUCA: 1.13 ratio
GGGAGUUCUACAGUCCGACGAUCGAUUCUGAGUCCUCCACUUGUUCUCACUGGUGAUCCUUCAAAGUUGAGUCUAGAAGGGACUAGAAAUUUUCUUUCUCUGGGGCCUCUCGUCAGAGAGACAGGUGUUAAAAACAGGAAUAUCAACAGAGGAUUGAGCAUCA: 0.476 ratio
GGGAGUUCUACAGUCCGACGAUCGCUGUGUAGAGUAGGGCCCUGUUCUCCUUAGGAUGUUGCUUCUUGAUUUUUUUUUUUUUUUAGGGGUGGGUCAGGGUUGUGACACACCAGCCCAGGUGAGAGCUGCUGCGGGUCACCUCACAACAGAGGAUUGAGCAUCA: 2.42 ratio
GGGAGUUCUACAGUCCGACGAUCUCCUCAACUUGUUCUAGCUUGUGAUCCUUCAAAGUUGGGUCAGGCGUUAGUGCCAGGUACUAGAAAAUUUCAUUUCUCUAUUGCCACUGAUCAGAGAGACAGAUGUUAAAAACAGGAACACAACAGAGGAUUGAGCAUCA: 0.301 ratio
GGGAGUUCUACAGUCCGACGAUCGCUCUAGUUCUUAACAACCGACACUCCUACAAGAUUUAGAAAAAAGUUUACAACAUAAUCUAGUUUACAGAAAAAUCUUGUGCUAGAAUACUUUUUAAAAGGUAUUUUGAAUACCAUUAACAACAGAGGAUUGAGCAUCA: 0.655 ratio
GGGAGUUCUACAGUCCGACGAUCUAAGAUUUGGAAGAAUUGUAUAGGAGGCAGUAGUCAAAAAGUAGAAGCAGUUUGGAAGAGUAGUUACAAAUAUCAAGAGCCAGGUGGCUAAAAGGUGGAGCUAUAGGUCAUUGAAGCUCACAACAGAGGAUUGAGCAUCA: 1.07 ratio

Series 6
Target: TAR DNA-binding protein 43, full length, His tag (TARDBP, Homo sapiens, UniProt Q13148, residues 1-414)
Technique: RNA Bind-n-Seq
Molecule type: RNA
Matrix: in vitro
Concentration: 20 nM
Notes: 6-mer, flanks averaged, single round
Together with: 150 mM KCl
Reference: input library
Direction: higher = stronger binding
Endpoint: 6-mer enrichment (R)
CAUAGG: 0.995
GACCUU: 0.663
UGGUAG: 1.38
UGCAAC: 0.658
UACUGA: 0.623
CGUGUU: 0.796
GGCCUC: 0.919
AGUCCA: 0.63
GUCGAG: 1.49
GCUCAG: 0.898
AAUGAA: 0.822
CUUAAC: 0.562
UGGAAC: 0.851
GAGCCC: 0.81
CCCAUA: 0.623
UUUUCG: 0.626
AGUUGG: 1.27
CUGGGU: 1.68
